# Published values from different studies.
# Protocols differ between the studies behind these lines. Several values in a cell are separate wells, animals, samples, runs or records.
# Cell line: HEK293
SMILES,observed,method,time,IC50
COc1cccc2c1C(=O)c1c(O)c3c(c(O)c1C2=O)C[C@@](O)(C(=O)CO)C[C@@H]3O[C@H]1C[C@H](N)[C@H](O)[C@H](C)O1,,MTT,24 h,9.34 µg/mL
CN(c1ccc(NC(=O)c2cccc(C(=N)N)c2)cc1OCc1ccc(C(F)(F)F)cc1)S(=O)(=O)C(F)(F)F,cell growth,MTT,48 h,> 500 µM
CC(=O)[C@@H]1CCCN1C(=O)[C@@H]1CCCN1C(=O)OC(C)(C)C,cell growth,sulforhodamine B,,5930 µM and 5140 µM and 5260 µM
COc1ccc(C(=O)Nc2ccc(NC(=N)N)c(OCc3cc(OC)ccc3OC)c2)cc1,cell growth,MTT,48 h,> 500 µM
COc1cc(NC(=O)c2ccc(Cl)cc2)ccc1S(N)(=O)=O,cell viability,MTT,48 h,> 100 µM
COc1cccc2c1C(=O)c1c(O)c3c(c(O)c1C2=O)C[C@@](O)(C(=O)CO)C[C@@H]3O[C@H]1C[C@H](N)[C@H](O)[C@H](C)O1,cell growth,sulforhodamine B,,42.6 µM and 34.8 µM and 38.7 µM
COc1cc(NC(=O)c2ccc(C(F)(F)F)cc2C(F)(F)F)ccc1S(N)(=O)=O,cell viability,MTT,48 h,> 100 µM
CC1CCC(C(C)C)C(OC2=C(Cl)C(=O)c3ccccc3C2=O)C1 (stereo not drawn),,MTT,24 h,> 50 µg/mL
COc1cc(NC(=O)c2cccc(C#N)c2)ccc1S(N)(=O)=O,cell viability,MTT,48 h,> 100 µM
CN(c1ccc(NC(=O)c2ccc(C(=N)N)cc2)cc1OCc1ccc(C(F)(F)F)cc1)S(=O)(=O)C(F)(F)F,cell growth,MTT,48 h,> 500 µM
C#CCCCC[C@H](C)C[C@@H](C)C(=O)N1C(=O)OC[C@H]1Cc1ccccc1,cell growth,sulforhodamine B,,318 µM and 283 µM and 280 µM
CN(c1ccc(NC(=O)c2cccc(C(=N)N)c2)cc1OCc1ccc(C(F)(F)F)cc1)S(=O)(=O)Cc1ccccc1,cell growth,MTT,48 h,> 500 µM
COc1cc(NC(=O)c2cccc(C(F)(F)F)c2)ccc1S(N)(=O)=O,cell viability,MTT,48 h,> 100 µM
COc1ccc(OC)c(COc2cc(NC(=O)c3ccc4c(c3)OCO4)ccc2NC(=N)N)c1,cell growth,MTT,48 h,> 500 µM
COc1cc(NC(=O)c2cccc(C)c2)ccc1S(N)(=O)=O,cell viability,MTT,48 h,> 100 µM

# Some of these lines once more:
SMILES,observed,method,time,IC50
COc1cc(NC(=O)c2ccc(Cl)cc2)ccc1S(N)(=O)=O,cell viability,MTT,48 h,> 100 µM
COc1cccc2c1C(=O)c1c(O)c3c(c(O)c1C2=O)C[C@@](O)(C(=O)CO)C[C@@H]3O[C@H]1C[C@H](N)[C@H](O)[C@H](C)O1,cell growth,sulforhodamine B,,42.6 µM and 34.8 µM and 38.7 µM
